Measurements from different studies.
Protocols differ between the studies behind these lines. Values joined by “and” are separate records of one study, mostly repeats; a detail may differ. Numbers after ± are the reported error.
TOP2A: DNA topoisomerase 2-alpha (TOP2A, Homo sapiens, UniProt P11388)
BEST2: Bestrophin-2a (BEST2, Homo sapiens, UniProt Q8NFU1)
Pteridine reductase 1: Pteridine reductase 1 (Leishmania major, UniProt Q01782)
T1: G-quadruplex RNA, intermolecular parallel G4 (Homo sapiens); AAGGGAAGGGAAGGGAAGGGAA
T2: G-quadruplex RNA (Homo sapiens); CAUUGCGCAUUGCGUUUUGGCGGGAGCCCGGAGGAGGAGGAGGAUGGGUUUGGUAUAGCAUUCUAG

Compound = O=C(Nc1cccc2ncccc12)C1CCCN(S(=O)(=O)c2cccs2)C1 (centres unmarked); target = AASS, LKR domain (Homo sapiens, UniProt Q9UDR5); test = binding, surface plasmon resonance; conditions = 1.667 µM; measurement = SPR response; value = 1.4 RU
Compound = O=c1nc(SCc2cc(F)cc(C(F)(F)F)c2)nc(SCc2ccc3ncsc3c2)[nH]1; target = TOP2A; test = decatenation; conditions = 31.25 µM, replicate 2; measurement = decatenated DNA; value = 56.2%
Compound = CC(=O)N[C@H](C(=O)N1C[C@H](O)C[C@H]1C(=O)NCc1ccc(-c2scnc2C)cc1)C(C)(C)SCCCCCCNC(=O)C[C@@H]1N=C(c2ccc(Cl)cc2)c2c(sc(C)c2C)-n2c(C)nnc21; target = BRD4/VHL, BD1; with elongins B/C (Homo sapiens, UniProt O60885+P40337); test = ternary complex binding, ITC; conditions = 25 °C, unit not given, with: VHL-ElonginB-ElonginC, PROTAC:Brd4^BD1; scale = reference: binary binding to VHL-ElonginB-ElonginC, positive = cooperative; measurement = ΔpKd ternary minus binary; value = -0.1 ± 0.2
Compound = O=C(O)c1ccc([N+](=O)[O-])cc1; target = BEST2; test = whole-cell patch clamp; test system = HEK293 transiently expressing channel; conditions = concentration not given, membrane potential 0 mV; measurement = current density; value = -0.27 pA/pF and -0.2 pA/pF and -0.54 pA/pF and 0.03 pA/pF and -0.8 pA/pF
Compound = CCC(NC(C)C)C(O)c1ccc(O)c2[nH]c(=O)ccc12 (centres unmarked); target = Beta-2 adrenergic receptor, V2R C-tail fusion (ADRB2, Homo sapiens, UniProt P07550); test = β-arrestin recruitment, agonist, Tango, refers to: Cerulean; test system = HEK293; measurement = Hill coefficient; value = 0.7
Compound = Nc1ncnc2c1ncn2[C@@H]1O[C@H](COP(=O)(O)CP(=O)(O)OP(=O)(O)O)[C@@H](O)[C@H]1O; target = P2X purinoceptor 1 (P2RX1, Homo sapiens, UniProt P51575, L218T); test = calcium influx; conditions = 10 nM; scale = reference: ionomycin response; measurement = calcium influx; value = 2.95% and 0% and 3.44%
Compound = COC(=O)c1cn(C)c2ccc(-c3cccnc3)cc12; target = RARA (Homo sapiens, UniProt P10276); test = reporter gene, Gal4 hybrid reporter; conditions = 10 µM; scale = reference: vehicle; measurement = activation; value = 0.84 fold
Compound = CCN(Cc1cnc2nc(N)nc(N)c2n1)c1ccc(C(=O)c2ccccc2)cc1; target = Pteridine reductase 1; conditions = hDHFR weight 10; scale = reference: LmPTR1, LmDHFR over hDHFR, 1.0 selective, 0.0 non-selective; measurement = partition index; value = 0.89
Compound = CN(C)c1ccc(Nc2c3ccc(NC(=O)CCN4CCCC4)cc3nc3cc(NC(=O)CCN4CCCC4)ccc23)cc1; target = T1, G-quadruplex RNA, intermolecular parallel G4 (Homo sapiens); test = CD melting; conditions = Tm increased; measurement = binding; value = binds
Compound = C=CC(=O)N1CCC[C@@H](n2nc(-c3ccc(Oc4ccccc4)cc3)c3c(N)ncnc32)C1; target = FGFR1 (Homo sapiens, UniProt P11362); conditions = 0.1 µM; measurement = remaining activity; value = 98.8%
Compound = N.N.[Cl-].[Cl-].[Pt+2]; target = T2, G-quadruplex RNA (Homo sapiens); test = optical tweezers unfolding; conditions = KCl 100 mM, preformed rG4, covalent, with: cisplatin; measurement = binding; value = binds
Compound = Cc1nc(CSc2nc(SCc3cc(F)cc(C(F)(F)F)c3)nc(=O)[nH]2)cs1; target = TOP2A; test = decatenation; conditions = 15.6 µM, replicate 2; measurement = decatenated DNA; value = 88.8%
Compound = N#Cc1ccn2c(-c3ccncc3)c(-c3ccc(F)cc3)nc2c1; target = Mitogen-activated protein kinase MKC1 (MKC1, Candida albicans, UniProt P43068); test = kinase binding, competitor, MIB/MS competition, refers to: MKC1; test system = Candida albicans cell lysate; conditions = 10 µM; scale = reference: DMSO; measurement = log2 fold change; value = -0.246
Compound = NC(=O)c1ccc[n+]([C@@H]2O[C@H](COP(=O)([O-])OP(=O)(O)OC[C@H]3O[C@@H](n4cnc5c(NCCNC(=O)CCCCCNC(=O)CCCCCNC(=O)CCCC[C@@H]6SC[C@@H]7NC(=O)N[C@@H]76)ncnc54)[C@H](O)[C@@H]3O)[C@@H](O)[C@H]2O)c1; target = PARP10 (Homo sapiens, UniProt Q53GL7); test = substrate, DELFIA auto-modification; measurement = apparent Km; value = 3 µM
Compound = Nc1nc(N)c2nc(CNc3ccc(C(=O)NCCc4ccccc4)cc3)cnc2n1; target = Pteridine reductase 1; conditions = hDHFR weight 10; scale = reference: LmPTR1, LmDHFR over hDHFR, 1.0 selective, 0.0 non-selective; measurement = partition index; value = 0.99
Compound = COc1cc(F)ccc1-c1ncnc(Nc2cccc(C[S@](C)(=N)=O)c2)n1; target = FES (Homo sapiens, UniProt P07332); test = kinase activity; conditions = 10 µM, with: 10 µM ATP; measurement = remaining activity; value = 79%
Compound = O=c1nc(SCc2cc(F)cc(C(F)(F)F)c2)nc(SCc2ccc3nc(Cl)ccc3c2)[nH]1; target = TOP2A; test = DNA relaxation; conditions = 31.25 µM; measurement = mean relaxed DNA; value = 94.5%
Compound = O=C1CCC(N2C(=O)C=C(Nc3cccc(C4(NCCc5ccc(C(F)(F)F)c(Cl)c5)CCC4)c3)C2=O)C(=O)N1 (centres unmarked); target = Cereblon/Ikaros (Homo sapiens, UniProt Q13422+Q96SW2); test = protein degradation, degrader, HiBiT luminescence; test system = Jurkat; measurement = Dmax; value = 84%
Compound = [Zn+2]; target = Otop1 (Mus musculus, UniProt Q80VM9); test = acid-evoked current, inhibitor, whole-cell patch-clamp; test system = HEK293T; conditions = 0.1 mM, pH 5.5, unit not given; scale = reference: current before compound; measurement = remaining current; value = 0.445
Compound = O=c1nc(SCc2cc(F)cc(C(F)(F)F)c2)nc(SCc2ccc3sccc3c2)[nH]1; target = TOP2A; test = ATPase activity; conditions = 15.6 µM, with: ATP 0.5 mM; measurement = ATP hydrolysis rate; value = 0.57 µM/min and 0.934 µM/min
Compound = C[C@@H](O)[C@H](NC(=O)[C@H](Cc1ccc(O)cc1)NC(=O)[C@H](Cc1ccc(O)cc1)NC(=O)[C@H](CO)NC(=O)[C@H](CCCNC(=N)N)NC(=O)[C@H](Cc1c[nH]cn1)NC(=O)[C@@H](N)Cc1c[nH]c2ccccc12)C(=O)N[C@@H](Cc1c[nH]c2ccccc12)C(=O)N[C@@H](CC(N)=O)C(N)=O; target = Programmed cell death 1 ligand 1, with PD-1 (CD274, Homo sapiens, UniProt Q9NZQ7); test = PD-1 binding, inhibitor, competitive ELISA; conditions = 2.5 µM; scale = reference: PBS over 2% BSA; measurement = fold reduction of blocking; value = 22 fold
Compound = Oc1ccccc1-c1n[nH]cc1-c1ccnc2ccccc12; target = Actin-regulating kinase PRK1 (PRK1, Candida albicans, UniProt Q5A961); test = kinase binding, MIB/MS competition; test system = Candida albicans lysate; conditions = 10 µM; scale = reference: DMSO, negative = stronger binding; measurement = log2 fold change; value = -0.33
Compound = CCOCc1nc(O)c(-c2nnc(Cc3ccc(Cl)cn3)o2)c(O)c1-c1c(OC)cccc1OC; target = Apelin receptor (APLNR, Homo sapiens, UniProt P35414); test = Gαi3 activation, agonist, BRET biosensor; test system = HEK293; measurement = Emax; value = 115 ± 18%
Compound = Nc1ccc(C(=O)O)cc1; target = BEST1, with wild-type BEST1 (Homo sapiens, UniProt O76090, L234P); test = ion current, whole-cell patch clamp; test system = HEK293 co-expressing mutant and wild-type; conditions = concentration not given, voltage 0 mV; measurement = current density; value = -0.02 pA/pF and 0.02 pA/pF and -0.01 pA/pF and -0.05 pA/pF and 0.03 pA/pF
Compound = O=C(O)c1ccc(-c2c[nH]c3ncc(-c4ccccc4)cc23)cc1C1CCCC1; target = PKN1 (Homo sapiens, UniProt Q16512); test = inhibitor; measurement = Hill slope; value = -0.831
Compound = CC1=C(/C=C/C(C)=C/C=C/C(C)=C/C(=O)O)C(C)(C)CCC1; target = CRABP2 (Homo sapiens, UniProt P29373, L122E/R112L/R133K); test = tryptophan fluorescence quenching; conditions = concentration not given; scale = reference: R132K:R111L:L121E over R132K:L121E, higher = stronger binding; measurement = binding affinity fold change; value = 3 fold
Compound = O=c1nc(SCc2cc(F)cc(C(F)(F)F)c2)nc(SCc2ccc3ccccc3n2)[nH]1; target = TOP2A; test = decatenation; conditions = 7.8 µM, replicate 1; measurement = decatenated DNA; value = 100%
Compound = O=C(O)c1ccc(Nc2ncc3c(n2)-c2ccc(Cl)cc2C(c2c(F)cccc2F)=NC3)cc1; target = PAK2(h); test = kinase activity; conditions = 1 µM; measurement = remaining activity; value = 100%
Compound = CCN(CCO)CCCC(C)Nc1ccnc2cc(Cl)ccc12 (centres unmarked); target = SCN5A (Homo sapiens, UniProt Q14524); test = sodium current, whole-cell patch clamp; conditions = 100 µM, without ATX-II; measurement = inactivation slope factor; value = 6.42 mV/e-fold and 5.82 mV/e-fold and 6.43 mV/e-fold
Compound = Nc1nc2c(ncn2[C@@H]2O[C@H](COP(=O)(O)O)[C@@H](O)[C@H]2O)c(=O)[nH]1; target = GUK1 (Homo sapiens, UniProt Q16774); test = substrate, NADH-coupled; conditions = NaCl 50 mM, enzyme 2 nM; measurement = Vmax; value = 0.102 µM/s
Compound = CN(Cc1cnc2nc(N)nc(N)c2n1)c1ccc(C(=O)N[C@@H](CCC(=O)O)C(=O)O)cc1; target = Proton-coupled folate transporter (Homo sapiens, UniProt Q96NT5, H247A); test system = cells transfected with H247A mutant; scale = reference: wild type; measurement = Kt decrease; value = 4.2 fold
Compound = CCS(=O)(=O)c1nc(C)cc(-c2ccccc2)n1; target = KPNB1 (Homo sapiens, UniProt Q14974); test = thermal shift; conditions = 30 µM, 2 h; measurement = Tm; value = 49.3 °C
Compound = CC(C)C(=O)Nc1n[nH]c2cc(-c3cccc(NS(=O)(=O)C4CC4)c3)ccc12; target = PIP5K1C (Homo sapiens, UniProt O60331); test = ADP-Glo; conditions = 3.33 µM, with: 10 µM ATP; measurement = ADP produced; value = 1.46 µM
Compound = O=C(O)c1ccc(O)cc1; target = BEST2; test = whole-cell patch clamp; test system = HEK293 transiently expressing channel; conditions = concentration not given, membrane potential 0 mV; measurement = current density; value = -0.18 pA/pF and -0.23 pA/pF and -0.57 pA/pF and -0.01 pA/pF and -0.06 pA/pF and -0.73 pA/pF and -0.4 pA/pF
Compound = COc1cc(-c2cc(C(C)=O)n3ccccc23)cc(OC)c1Cn1ccnc1; target = PHIP, BD2 (Homo sapiens, UniProt Q8WWQ0); measurement = ΔTm; value = -2 °C
Compound = Nc1nc(N)c2c(n1)CCCC2; target = folA (Escherichia coli, UniProt P0ABQ4); conditions = concentration not given, ternary complex with NADPH; measurement = major state population; value = 97.3 ± 0.3%
Compound = O=c1nc(SCc2cc(F)cc(C(F)(F)F)c2)nc(SCc2ccc3nc(OCCN4CCOCC4)ccc3c2)[nH]1; target = TOP2A; test = DNA cleavage; conditions = 31.25 µM, replicate 1; measurement = linear DNA; value = 0%
Compound = Cc1c(COc2ccc(CN3CCCCC3C(=O)NCCCCCNC(=O)CN(C)CCCC34CCC(c5ccccc53)c3ccccc34)cc2Br)cccc1-c1ccccc1 (centres unmarked); target = CD274 (Homo sapiens, UniProt Q9NZQ7); test = degrader, western blot; test system = HL-60; conditions = 1 µM; measurement = degradation; value = 18.5 ± 1.5%
Compound = O=c1nc(SCc2cc(F)cc(C(F)(F)F)c2)nc(SCc2cccc(C(F)(F)F)c2)[nH]1; target = TOP2A; test = decatenation; conditions = 15.6 µM; measurement = mean decatenated DNA; value = 34.5%
Compound = CCCC(=O)Nc1ncnc2c1ncn2[C@@H]1O[C@@H]2COP(=O)(O)O[C@H]2[C@H]1O; target = anti-cGMP antibody; test = antibody binding, competitive cGMP EIA; conditions = concentration not given, acetylated samples; scale = reference: EC50 cGMP over EC50 cpd, higher = stronger binding; measurement = relative binding affinity; value = 0.0001
Compound = COc1ncc(CNc2c(CO)cnc3c(C4CC4)cc(C#N)cc23)cc1Cl; target = PDE2A (Homo sapiens, UniProt O00408); test = enzyme activity, inhibitor; conditions = concentration not given; measurement = activity class; value = inactive
Compound = Cc1nc(CSc2nc(SCc3ccc(C(F)(F)F)cc3)nc(=O)[nH]2)cs1; target = TOP2A; test = decatenation; conditions = 15.6 µM, replicate 1; measurement = decatenated DNA; value = 100%
Compound = CCOC(=O)C1=C(CN2CCc3ccccc32)NC(=O)NC1c1ccccc1OC(F)F (centres unmarked); target = AASS, SDH domain (Homo sapiens, UniProt Q9UDR5); test = binding, surface plasmon resonance; conditions = 15 µM; measurement = SPR response; value = 23.5 RU
Compound = NC(N)=S; target = Urea transporter 1 (Homo sapiens, UniProt Q13336); scale = reference: compound over urea Km; measurement = affinity ratio; value = ~10
